Assay results collected from several papers.
Every numbered part comes from another study and shows a few of its results, in no order.
Sequence of UniProt Q04912 (whole entry, looked up): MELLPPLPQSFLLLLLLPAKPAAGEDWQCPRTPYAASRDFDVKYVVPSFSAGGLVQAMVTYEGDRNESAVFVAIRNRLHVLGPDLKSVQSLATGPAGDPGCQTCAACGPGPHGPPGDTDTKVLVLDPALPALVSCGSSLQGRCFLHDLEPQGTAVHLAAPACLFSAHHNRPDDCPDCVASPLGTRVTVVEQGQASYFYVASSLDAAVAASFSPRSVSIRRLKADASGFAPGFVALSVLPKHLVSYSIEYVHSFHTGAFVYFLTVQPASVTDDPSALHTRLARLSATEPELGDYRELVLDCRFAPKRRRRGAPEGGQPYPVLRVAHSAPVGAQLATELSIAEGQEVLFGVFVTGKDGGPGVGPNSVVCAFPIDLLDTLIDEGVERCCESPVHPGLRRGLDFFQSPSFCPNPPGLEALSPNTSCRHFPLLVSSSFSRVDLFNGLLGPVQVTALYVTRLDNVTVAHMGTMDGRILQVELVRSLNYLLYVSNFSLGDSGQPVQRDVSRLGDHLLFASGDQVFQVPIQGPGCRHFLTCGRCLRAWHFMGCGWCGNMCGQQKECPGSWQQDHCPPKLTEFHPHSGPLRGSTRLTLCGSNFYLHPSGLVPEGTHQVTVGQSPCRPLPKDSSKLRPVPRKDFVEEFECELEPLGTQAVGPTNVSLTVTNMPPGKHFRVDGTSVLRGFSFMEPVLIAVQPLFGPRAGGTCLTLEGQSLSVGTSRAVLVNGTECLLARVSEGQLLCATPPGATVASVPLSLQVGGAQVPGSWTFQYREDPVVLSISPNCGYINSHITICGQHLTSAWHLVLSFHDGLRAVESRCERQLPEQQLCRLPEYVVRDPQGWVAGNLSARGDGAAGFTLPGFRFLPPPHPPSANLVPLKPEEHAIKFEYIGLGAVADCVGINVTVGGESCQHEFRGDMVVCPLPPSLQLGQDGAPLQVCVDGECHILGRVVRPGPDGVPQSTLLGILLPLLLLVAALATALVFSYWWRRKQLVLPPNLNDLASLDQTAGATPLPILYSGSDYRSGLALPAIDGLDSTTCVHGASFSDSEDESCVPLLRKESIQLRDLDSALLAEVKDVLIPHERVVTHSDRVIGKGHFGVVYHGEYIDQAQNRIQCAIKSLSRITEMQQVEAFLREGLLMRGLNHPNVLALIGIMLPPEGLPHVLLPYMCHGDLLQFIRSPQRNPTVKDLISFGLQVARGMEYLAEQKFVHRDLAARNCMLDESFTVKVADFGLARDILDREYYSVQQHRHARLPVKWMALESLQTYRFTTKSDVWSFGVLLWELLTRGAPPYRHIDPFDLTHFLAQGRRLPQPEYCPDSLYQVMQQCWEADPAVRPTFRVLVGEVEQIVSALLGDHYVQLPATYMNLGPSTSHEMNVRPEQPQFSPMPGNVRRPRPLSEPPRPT
Sequence of UniProt P20794 (whole entry, looked up): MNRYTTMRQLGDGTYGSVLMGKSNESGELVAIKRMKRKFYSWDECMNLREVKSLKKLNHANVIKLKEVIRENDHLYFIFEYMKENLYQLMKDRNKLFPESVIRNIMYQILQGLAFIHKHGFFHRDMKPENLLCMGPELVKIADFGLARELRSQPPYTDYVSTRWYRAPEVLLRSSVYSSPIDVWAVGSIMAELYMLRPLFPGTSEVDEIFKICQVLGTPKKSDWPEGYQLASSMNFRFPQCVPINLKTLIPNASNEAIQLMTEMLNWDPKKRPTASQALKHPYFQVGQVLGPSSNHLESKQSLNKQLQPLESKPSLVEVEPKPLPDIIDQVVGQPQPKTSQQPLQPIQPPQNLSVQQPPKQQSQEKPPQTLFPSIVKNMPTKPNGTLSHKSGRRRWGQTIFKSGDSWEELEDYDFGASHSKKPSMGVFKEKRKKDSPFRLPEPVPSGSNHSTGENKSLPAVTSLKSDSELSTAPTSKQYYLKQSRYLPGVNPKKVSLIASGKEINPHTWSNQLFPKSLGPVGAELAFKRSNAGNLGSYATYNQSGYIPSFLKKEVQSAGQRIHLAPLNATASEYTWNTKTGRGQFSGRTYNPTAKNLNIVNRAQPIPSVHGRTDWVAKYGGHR
Sequence of UniProt Q15303 (whole entry, looked up): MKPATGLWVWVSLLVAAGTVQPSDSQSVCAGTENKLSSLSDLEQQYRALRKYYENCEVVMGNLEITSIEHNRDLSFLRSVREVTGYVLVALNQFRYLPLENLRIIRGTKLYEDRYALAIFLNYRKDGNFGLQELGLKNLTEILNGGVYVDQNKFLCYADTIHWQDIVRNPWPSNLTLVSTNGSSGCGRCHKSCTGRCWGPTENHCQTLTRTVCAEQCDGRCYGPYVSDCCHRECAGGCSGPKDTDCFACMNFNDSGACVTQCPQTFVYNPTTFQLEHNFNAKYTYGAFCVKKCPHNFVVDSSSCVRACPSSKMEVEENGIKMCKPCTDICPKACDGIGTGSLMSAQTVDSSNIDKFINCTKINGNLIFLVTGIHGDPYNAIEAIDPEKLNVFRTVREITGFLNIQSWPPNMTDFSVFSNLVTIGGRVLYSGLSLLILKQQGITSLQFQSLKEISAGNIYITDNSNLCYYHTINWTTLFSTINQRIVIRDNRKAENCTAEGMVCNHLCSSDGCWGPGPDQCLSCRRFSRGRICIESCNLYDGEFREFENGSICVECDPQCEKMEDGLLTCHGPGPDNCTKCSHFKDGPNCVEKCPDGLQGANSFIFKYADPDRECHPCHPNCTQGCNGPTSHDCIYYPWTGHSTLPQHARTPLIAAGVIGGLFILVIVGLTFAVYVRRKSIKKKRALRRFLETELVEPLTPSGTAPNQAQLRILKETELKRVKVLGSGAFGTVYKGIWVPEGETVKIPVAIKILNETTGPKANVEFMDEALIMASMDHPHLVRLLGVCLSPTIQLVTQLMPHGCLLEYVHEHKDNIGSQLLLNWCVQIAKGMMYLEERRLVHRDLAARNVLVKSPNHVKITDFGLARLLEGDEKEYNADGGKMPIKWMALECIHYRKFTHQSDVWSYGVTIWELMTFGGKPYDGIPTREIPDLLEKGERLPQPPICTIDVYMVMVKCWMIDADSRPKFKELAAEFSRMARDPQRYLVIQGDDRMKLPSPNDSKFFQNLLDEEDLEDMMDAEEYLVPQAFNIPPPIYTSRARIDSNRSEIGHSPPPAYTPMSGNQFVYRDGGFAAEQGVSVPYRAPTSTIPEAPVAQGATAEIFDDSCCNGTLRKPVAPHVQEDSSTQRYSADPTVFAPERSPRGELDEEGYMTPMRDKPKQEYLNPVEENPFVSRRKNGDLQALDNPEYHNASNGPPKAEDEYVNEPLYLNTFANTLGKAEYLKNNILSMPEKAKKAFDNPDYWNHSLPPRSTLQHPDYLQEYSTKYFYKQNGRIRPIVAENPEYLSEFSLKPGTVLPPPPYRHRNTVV
Sequence of UniProt Q04759 (whole entry, looked up): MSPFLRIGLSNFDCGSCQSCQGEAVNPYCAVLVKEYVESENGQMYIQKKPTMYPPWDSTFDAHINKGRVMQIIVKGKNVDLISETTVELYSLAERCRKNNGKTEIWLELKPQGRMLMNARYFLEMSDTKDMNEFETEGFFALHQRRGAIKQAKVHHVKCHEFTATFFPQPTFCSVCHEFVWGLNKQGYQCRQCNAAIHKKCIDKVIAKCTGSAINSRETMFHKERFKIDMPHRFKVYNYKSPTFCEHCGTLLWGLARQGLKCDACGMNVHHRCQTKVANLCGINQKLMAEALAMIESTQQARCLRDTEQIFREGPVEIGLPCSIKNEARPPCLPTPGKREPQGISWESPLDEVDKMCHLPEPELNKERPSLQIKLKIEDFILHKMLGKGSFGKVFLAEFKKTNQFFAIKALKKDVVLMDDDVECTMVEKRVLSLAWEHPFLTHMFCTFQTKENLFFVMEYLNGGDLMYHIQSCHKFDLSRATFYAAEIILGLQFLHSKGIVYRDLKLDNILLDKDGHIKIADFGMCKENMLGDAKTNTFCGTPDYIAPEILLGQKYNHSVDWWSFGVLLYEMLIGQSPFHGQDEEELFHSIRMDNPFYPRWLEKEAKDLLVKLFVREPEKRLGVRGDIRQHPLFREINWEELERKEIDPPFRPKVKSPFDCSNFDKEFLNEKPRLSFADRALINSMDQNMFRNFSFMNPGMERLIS

Block 1
Structure (SMILES): CC(C)n1cnc(-c2ccc(F)cc2)c1-c1ncc(C(=O)Nc2ccc(N3CCN(C)CC3)cc2)[nH]1
Technique: phase 2a trial
Species: idiopathic pulmonary fibrosis patients
conditions	patients with abdominal discomfort [%]
dose not given, adverse event grade 4, all dose arms pooled	0
30 mg once daily, adverse event grade 5	0
60 mg once daily, adverse event grade 4	0
60 mg once daily, adverse event grade 5	0
30 mg once daily, adverse event grade 2	0
60 mg once daily, adverse event grade 2	0

Block 2
SMILES: O=C(N1CCS(=O)(=O)CC1)N1C[C@H](c2ccc(OC(F)(F)F)cc2)C[C@H](c2nc(C3CC3)no2)C1
Technique: competition with immobilised ligand
Tested at: 1 µM
target	test	remaining binding
Ribosomal protein S6 kinase alpha-1, N-terminal kinase domain (RPS6KA1, Homo sapiens, UniProt Q15418)	cell-free assay	100%
Receptor tyrosine-protein kinase erbB-4 (ERBB4, Homo sapiens, UniProt Q15303)	cell-free assay	95%
Myosin-IIIb (MYO3B, Homo sapiens, UniProt Q8WXR4)	binding	89%
Membrane-associated tyrosine- and threonine-specific cdc2-inhibitory kinase (PKMYT1, Homo sapiens, UniProt Q99640)	cell-free assay	100%
Mitogen-activated protein kinase kinase kinase 4 (MAP3K4, Homo sapiens, UniProt Q9Y6R4)	cell-free assay	83%
Epidermal growth factor receptor (EGFR, Homo sapiens, UniProt P00533, del747-752/P753S)	cell-free assay	100%
Protein kinase C theta type (PRKCQ, Homo sapiens, UniProt Q04759)	cell-free assay	86%

Block 3
Target: Serine/threonine-protein kinase ULK2 (ULK2, Homo sapiens, UniProt Q8IYT8)
Sequence of UniProt Q8IYT8 (whole entry, looked up): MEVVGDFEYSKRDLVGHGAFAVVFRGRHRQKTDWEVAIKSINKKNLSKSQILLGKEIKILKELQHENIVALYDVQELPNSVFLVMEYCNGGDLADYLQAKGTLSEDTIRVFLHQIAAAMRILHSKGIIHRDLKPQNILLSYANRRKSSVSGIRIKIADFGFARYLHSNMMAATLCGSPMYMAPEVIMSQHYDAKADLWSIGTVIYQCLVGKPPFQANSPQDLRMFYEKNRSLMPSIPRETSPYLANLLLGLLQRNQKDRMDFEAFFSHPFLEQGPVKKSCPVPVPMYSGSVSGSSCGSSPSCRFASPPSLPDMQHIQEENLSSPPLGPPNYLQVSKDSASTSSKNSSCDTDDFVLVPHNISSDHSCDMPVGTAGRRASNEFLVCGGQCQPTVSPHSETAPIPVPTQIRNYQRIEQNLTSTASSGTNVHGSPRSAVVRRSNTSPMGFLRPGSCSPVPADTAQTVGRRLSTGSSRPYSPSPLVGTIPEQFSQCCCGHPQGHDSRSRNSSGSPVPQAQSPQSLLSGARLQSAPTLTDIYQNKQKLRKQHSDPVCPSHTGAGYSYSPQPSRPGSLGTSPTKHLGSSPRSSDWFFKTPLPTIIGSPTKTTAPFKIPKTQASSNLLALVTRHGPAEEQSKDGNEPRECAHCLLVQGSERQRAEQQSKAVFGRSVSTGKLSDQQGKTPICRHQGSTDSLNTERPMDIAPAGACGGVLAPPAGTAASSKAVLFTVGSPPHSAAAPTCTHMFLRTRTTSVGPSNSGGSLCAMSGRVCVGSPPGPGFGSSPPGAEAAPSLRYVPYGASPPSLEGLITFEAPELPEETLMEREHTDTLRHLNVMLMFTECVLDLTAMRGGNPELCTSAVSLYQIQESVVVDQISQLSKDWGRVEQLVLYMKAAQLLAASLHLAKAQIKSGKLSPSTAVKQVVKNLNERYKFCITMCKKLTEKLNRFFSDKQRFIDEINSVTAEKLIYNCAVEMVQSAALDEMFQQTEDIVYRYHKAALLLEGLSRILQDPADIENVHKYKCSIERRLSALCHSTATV
Observed: enzyme activity
Action: inhibitor
Tested at: 0.5 µM
Baseline: control
SMILES	remaining activity [%]
Nc1ccc2ncnc(NCCc3ccc(Oc4ccccc4)cc3)c2c1	103
Cc1cccc(-c2[nH]c(C(C)(C)C)nc2-c2ccc3c(c2)OCO3)n1	75.4
Cn1sc(=O)n(Cc2ccccc2)c1=O	105
O=C(Nc1cccc(Nc2cc(Nc3cccc(C(F)(F)F)c3)ncn2)c1)C1CC1	102
CCOC(=O)c1c(C)[nH]c(/C=C2\C(=O)Nc3ccccc32)c1C	105
O=C(O)c1ccc2c3c1cccc3c(=O)n1c3ccccc3nc21	93.9
COc1ccc(CNC(=O)Nc2ncc([N+](=O)[O-])s2)cc1	93.4
O=c1c2ccccc2[nH]c(=S)n1CCN1CCC(=C(c2ccc(F)cc2)c2ccc(F)cc2)CC1	96.5
CN(C)c1ccc(C=C2C(=O)Nc3ccccc32)cc1	97.1
Cc1nc(-c2ccccc2)c(-c2ccncc2)o1	102
O=S(=O)(c1cccc2cnccc12)N1CCCNCC1	101
N#CC(C#N)=C(N)/C(C#N)=C/c1ccc(O)cc1	105
Nc1ncnc2n[nH]c(Nc3ccc(F)cc3)c12	110
OCC(O)CCON=C1C(c2c(O)[nH]c3ccccc23)=Nc2ccccc21 (stereo not shown)	102
O=C1NC(=O)C(c2cn(CCCn3ccnc3)c3ccccc23)=C1Nc1ccccc1	91.7
Cn1c2ccccc2c2c3c(c4c5ccccc5n(CCC#N)c4c21)CNC3=O	92.9

Block 4
Compound: O=C(Nc1cnn(-c2csc(C(=O)NC3COC3)c2)c1)Nc1ccccc1Cl
Tested at: 5 µM
target	test	scale	remaining activity [%]
Ephrin type-B receptor 1 (EPHB1, Homo sapiens, UniProt P54762)	enzyme activity	baseline: untreated control	99.4
Serine/threonine-protein kinase ICK (CILK1, Homo sapiens, UniProt Q9UPZ9)	enzyme activity	baseline: untreated control	112
Serine/threonine-protein kinase TBK1 (TBK1, Homo sapiens, UniProt Q9UHD2)	enzyme activity	baseline: untreated control	99.5
Protein kinase C beta type, isoform beta-II (PRKCB, Homo sapiens, UniProt P05771)	kinase activity, kinase panel profiling		103
Calcium/calmodulin-dependent protein kinase kinase 2 (CAMKK2, Homo sapiens, UniProt Q96RR4)	enzyme activity	baseline: untreated control	84.1
cGMP-dependent protein kinase 1 (PRKG1, Homo sapiens, UniProt Q13976)	enzyme activity	baseline: untreated control	107
Macrophage-stimulating protein receptor (MST1R, Homo sapiens, UniProt Q04912)	enzyme activity	baseline: untreated control	94.2
Serine/threonine-protein kinase MAK (MAK, Homo sapiens, UniProt P20794)	enzyme activity, inhibitor		98.8

Some of these lines once more (block 2):
target	test	remaining binding
Ribosomal protein S6 kinase alpha-1, N-terminal kinase domain (RPS6KA1, Homo sapiens, UniProt Q15418)	cell-free assay	100%
Receptor tyrosine-protein kinase erbB-4 (ERBB4, Homo sapiens, UniProt Q15303)	cell-free assay	95%
Myosin-IIIb (MYO3B, Homo sapiens, UniProt Q8WXR4)	binding	89%
Membrane-associated tyrosine- and threonine-specific cdc2-inhibitory kinase (PKMYT1, Homo sapiens, UniProt Q99640)	cell-free assay	100%
